{"data": "Results from different studies", "note": "Parts stem from different laboratories: compare values within a part only.", "chain of UniProt Q8WXR4 (whole entry, looked up)": "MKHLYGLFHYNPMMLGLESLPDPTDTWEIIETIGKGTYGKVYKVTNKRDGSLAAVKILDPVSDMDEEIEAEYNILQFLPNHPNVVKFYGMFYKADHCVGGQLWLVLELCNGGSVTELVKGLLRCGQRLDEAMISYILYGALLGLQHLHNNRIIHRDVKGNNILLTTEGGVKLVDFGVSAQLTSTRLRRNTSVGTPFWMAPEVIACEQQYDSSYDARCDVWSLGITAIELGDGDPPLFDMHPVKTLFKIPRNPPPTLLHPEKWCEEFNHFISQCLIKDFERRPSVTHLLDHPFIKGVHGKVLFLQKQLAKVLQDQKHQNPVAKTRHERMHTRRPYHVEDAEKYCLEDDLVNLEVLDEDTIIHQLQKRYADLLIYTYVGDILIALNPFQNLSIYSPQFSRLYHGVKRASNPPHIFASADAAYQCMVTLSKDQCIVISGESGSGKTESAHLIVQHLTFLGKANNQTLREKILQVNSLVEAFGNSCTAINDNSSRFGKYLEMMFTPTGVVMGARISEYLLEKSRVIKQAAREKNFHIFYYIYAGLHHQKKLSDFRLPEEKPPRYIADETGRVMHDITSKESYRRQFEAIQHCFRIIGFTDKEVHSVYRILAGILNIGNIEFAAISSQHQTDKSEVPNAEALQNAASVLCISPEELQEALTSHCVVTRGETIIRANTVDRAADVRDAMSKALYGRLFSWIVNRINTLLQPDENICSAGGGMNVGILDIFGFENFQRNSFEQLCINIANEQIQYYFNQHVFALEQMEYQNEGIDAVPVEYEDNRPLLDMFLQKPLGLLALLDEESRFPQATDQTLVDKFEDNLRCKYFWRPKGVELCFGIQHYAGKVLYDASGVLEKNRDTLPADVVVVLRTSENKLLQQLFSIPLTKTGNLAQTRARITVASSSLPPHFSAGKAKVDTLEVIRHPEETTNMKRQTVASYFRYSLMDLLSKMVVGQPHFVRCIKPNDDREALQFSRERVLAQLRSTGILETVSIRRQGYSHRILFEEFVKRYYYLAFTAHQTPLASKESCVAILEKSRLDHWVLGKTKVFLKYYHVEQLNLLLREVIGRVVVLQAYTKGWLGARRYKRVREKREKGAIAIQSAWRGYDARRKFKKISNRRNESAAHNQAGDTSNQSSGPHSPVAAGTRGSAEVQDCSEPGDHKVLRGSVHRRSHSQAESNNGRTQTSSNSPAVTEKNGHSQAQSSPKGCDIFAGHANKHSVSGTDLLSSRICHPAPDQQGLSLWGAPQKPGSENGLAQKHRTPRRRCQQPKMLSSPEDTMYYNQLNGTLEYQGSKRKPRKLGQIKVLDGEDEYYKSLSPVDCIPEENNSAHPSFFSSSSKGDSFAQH", "chain of UniProt P07949 (whole entry, unmodified, looked up)": "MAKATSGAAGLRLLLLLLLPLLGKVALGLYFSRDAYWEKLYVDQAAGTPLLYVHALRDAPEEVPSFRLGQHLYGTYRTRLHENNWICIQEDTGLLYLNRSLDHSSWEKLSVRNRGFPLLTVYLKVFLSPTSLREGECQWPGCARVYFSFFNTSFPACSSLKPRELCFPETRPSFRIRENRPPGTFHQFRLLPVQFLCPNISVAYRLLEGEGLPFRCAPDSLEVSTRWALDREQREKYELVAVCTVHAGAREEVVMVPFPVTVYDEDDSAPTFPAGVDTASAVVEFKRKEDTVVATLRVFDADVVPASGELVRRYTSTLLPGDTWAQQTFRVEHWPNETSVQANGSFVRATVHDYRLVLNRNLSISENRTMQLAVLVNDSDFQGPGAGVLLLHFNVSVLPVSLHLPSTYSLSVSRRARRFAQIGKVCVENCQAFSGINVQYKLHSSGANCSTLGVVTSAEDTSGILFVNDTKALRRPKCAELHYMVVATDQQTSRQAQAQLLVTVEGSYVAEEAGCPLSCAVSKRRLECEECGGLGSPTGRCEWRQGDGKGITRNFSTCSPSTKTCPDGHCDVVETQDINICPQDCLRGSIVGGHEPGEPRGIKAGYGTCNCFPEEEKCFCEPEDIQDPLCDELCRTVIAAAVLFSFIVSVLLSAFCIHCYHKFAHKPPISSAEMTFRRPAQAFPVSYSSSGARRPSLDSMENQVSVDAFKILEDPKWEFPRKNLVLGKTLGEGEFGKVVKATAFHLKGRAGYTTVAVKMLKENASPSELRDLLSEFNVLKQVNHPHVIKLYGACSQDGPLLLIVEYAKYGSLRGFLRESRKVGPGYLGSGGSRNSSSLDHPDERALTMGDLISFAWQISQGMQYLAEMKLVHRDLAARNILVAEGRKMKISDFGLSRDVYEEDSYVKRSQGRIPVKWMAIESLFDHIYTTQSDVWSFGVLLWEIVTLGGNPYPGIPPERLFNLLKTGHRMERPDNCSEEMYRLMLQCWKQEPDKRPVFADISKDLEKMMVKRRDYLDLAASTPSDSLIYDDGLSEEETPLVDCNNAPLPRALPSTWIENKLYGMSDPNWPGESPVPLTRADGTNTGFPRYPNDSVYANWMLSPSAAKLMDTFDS", "chain of UniProt P42684 (whole entry, looked up)": "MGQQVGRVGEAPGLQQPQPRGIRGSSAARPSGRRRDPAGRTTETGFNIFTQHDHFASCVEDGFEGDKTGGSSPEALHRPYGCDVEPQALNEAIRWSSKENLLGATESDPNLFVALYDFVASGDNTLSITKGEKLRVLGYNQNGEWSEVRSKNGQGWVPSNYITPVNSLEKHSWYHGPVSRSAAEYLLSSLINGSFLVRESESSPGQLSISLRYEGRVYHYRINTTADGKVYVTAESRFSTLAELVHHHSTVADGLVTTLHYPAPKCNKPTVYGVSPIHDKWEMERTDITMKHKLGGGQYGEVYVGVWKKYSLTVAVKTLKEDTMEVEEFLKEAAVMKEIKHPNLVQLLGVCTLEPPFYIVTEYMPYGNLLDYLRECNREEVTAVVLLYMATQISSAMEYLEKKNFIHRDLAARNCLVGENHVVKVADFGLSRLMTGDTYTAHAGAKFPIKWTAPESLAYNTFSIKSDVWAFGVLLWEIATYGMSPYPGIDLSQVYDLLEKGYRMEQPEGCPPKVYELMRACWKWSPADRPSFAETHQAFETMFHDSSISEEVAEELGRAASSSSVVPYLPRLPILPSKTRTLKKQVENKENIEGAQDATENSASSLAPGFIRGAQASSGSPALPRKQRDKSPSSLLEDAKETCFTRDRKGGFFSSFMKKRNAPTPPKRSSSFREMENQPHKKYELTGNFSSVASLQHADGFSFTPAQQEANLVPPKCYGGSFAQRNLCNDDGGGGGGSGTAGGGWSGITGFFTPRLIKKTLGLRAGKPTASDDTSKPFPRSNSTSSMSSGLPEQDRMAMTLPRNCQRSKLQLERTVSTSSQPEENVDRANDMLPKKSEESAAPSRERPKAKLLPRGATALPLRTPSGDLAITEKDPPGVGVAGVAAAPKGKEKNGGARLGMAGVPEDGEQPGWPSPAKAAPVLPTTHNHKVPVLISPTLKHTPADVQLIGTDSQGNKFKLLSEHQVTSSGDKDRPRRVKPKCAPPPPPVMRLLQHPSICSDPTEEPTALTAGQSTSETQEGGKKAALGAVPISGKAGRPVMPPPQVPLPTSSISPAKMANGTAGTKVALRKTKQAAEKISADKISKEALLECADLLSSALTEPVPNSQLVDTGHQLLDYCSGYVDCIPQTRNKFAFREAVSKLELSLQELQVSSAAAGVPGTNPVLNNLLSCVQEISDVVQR"}
{"data": "Block 1", "cell line": "A-375", "concentration": "100 µM", "time": "36 h"}
{"Compound": "Cc1cc(=O)[nH]c(=S)[nH]1", "viability": "134%"}
{"Compound": "CC(C(=O)O)c1cccc(Oc2ccccc2)c1 (stereo not shown)", "viability": "68%"}
{"Compound": "CCN(Cc1ccncc1)C(=O)C(CO)c1ccccc1 (stereo not shown)", "viability": "106%"}
{"Compound": "CC[C@H](C)[C@H](N)C1=N[C@H](C(=O)N[C@@H](CC(C)C)C(=O)N[C@H](CCC(=O)O)C(=O)N[C@H](C(=O)N[C@H]2CCCCNC(=O)[C@H](CC(N)=O)NC(=O)[C@@H](CC(=O)O)NC(=O)[C@H](Cc3cnc[nH]3)NC(=O)[C@@H](Cc3ccccc3)NC(=O)[C@H]([C@@H](C)CC)NC(=O)[C@@H](CCCN)NC2=O)[C@@H](C)CC)CS1", "viability": "83.9%"}
{"Compound": "C=CCOC(Cn1ccnc1)c1ccc(Cl)cc1Cl (stereo not shown)", "viability": "96.6%"}
{"Compound": "N[C@H]1CONC1=O", "viability": "118%"}
{"Compound": "N[C@@H](CCC(=O)N[C@@H](CS)C(=O)NCC(=O)O)C(=O)O", "viability": "83.1%"}
{"Compound": "N[C@@H](Cc1cc(I)c(Oc2cc(I)c(O)c(I)c2)c(I)c1)C(=O)O", "viability": "97.5%"}
{"data": "Block 2", "target": "Calcium/calmodulin-dependent protein kinase type II subunit alpha (CAMK2A, Homo sapiens, UniProt Q9UQM7)", "read-out": "enzyme activity", "action": "inhibitor", "concentration": "10 µM", "chain of UniProt Q9UQM7 (whole entry, looked up)": "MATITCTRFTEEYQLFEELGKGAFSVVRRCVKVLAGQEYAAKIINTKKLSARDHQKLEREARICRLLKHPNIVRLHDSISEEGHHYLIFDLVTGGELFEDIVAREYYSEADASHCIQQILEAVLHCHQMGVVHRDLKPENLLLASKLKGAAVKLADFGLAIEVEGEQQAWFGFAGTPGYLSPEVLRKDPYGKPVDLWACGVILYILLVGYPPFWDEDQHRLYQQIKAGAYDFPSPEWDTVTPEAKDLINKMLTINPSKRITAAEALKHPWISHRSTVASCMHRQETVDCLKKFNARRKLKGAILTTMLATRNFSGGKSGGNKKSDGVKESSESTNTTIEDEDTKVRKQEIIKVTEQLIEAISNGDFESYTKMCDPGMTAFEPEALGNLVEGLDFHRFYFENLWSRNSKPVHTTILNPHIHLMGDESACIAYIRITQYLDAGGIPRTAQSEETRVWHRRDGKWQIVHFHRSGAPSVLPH"}
{"SMILES": "O=c1c(-c2ccc(O)cc2)coc2c([C@@H]3O[C@H](CO)[C@@H](O)[C@H](O)[C@H]3O)c(O)ccc12", "inhibition": "18%"}
{"SMILES": "CC(=O)c1ccc(O)cc1O", "inhibition": "8%"}
{"SMILES": "CC1(C)[C@H]2CC[C@]1(C)C(=O)C2", "inhibition": "4%"}
{"SMILES": "C=C1CCC[C@]2(C)C=C3OC(=O)C(C)=C3C[C@@H]12", "inhibition": "-4%"}
{"SMILES": "Cc1ccc(O)c(O)c1", "inhibition": "24%"}
{"SMILES": "CSCC[C@H](NC(=O)[C@H](Cc1c[nH]c2ccccc12)NC(=O)CCNC(=O)OC(C)(C)C)C(=O)N[C@@H](CC(=O)O)C(=O)N[C@@H](Cc1ccccc1)C(N)=O", "inhibition": "-4%"}
{"SMILES": "C[C@@H]1O[C@@H](OC[C@H]2O[C@@H](OCCc3ccc(O)c(O)c3)[C@H](O)[C@@H](O)[C@@H]2OC(=O)/C=C/c2ccc(O)c(O)c2)[C@H](O)[C@H](O)[C@H]1O", "inhibition": "-33%"}
{"SMILES": "COc1cc(/C=C/C(=O)O[C@H]2[C@H](O)[C@@H](CO)O[C@@]2(CO)O[C@H]2O[C@H](COC(=O)c3ccc(O)cc3)[C@@H](O)[C@H](O)[C@H]2O)cc(OC)c1OC", "inhibition": "-23%"}
{"SMILES": "Clc1ccc2c(N3CCN(CCCN4CCN(c5ccnc6cc(Cl)ccc56)CC4)CC3)ccnc2c1", "inhibition": "-7%"}
{"SMILES": "CC#CCC(C)[C@@H](O)/C=C/[C@H]1[C@@H]2c3cccc(CCCC(=O)O)c3O[C@@H]2C[C@@H]1O (stereo partly shown)", "inhibition": "-4%"}
{"data": "Block 3", "target": "Muscle, skeletal receptor tyrosine-protein kinase (MUSK, Homo sapiens, UniProt O15146)", "read-out": "enzyme activity", "action": "inhibitor", "concentration": "0.5 µM", "relative to": "control", "chain of UniProt O15146 (whole entry, looked up)": "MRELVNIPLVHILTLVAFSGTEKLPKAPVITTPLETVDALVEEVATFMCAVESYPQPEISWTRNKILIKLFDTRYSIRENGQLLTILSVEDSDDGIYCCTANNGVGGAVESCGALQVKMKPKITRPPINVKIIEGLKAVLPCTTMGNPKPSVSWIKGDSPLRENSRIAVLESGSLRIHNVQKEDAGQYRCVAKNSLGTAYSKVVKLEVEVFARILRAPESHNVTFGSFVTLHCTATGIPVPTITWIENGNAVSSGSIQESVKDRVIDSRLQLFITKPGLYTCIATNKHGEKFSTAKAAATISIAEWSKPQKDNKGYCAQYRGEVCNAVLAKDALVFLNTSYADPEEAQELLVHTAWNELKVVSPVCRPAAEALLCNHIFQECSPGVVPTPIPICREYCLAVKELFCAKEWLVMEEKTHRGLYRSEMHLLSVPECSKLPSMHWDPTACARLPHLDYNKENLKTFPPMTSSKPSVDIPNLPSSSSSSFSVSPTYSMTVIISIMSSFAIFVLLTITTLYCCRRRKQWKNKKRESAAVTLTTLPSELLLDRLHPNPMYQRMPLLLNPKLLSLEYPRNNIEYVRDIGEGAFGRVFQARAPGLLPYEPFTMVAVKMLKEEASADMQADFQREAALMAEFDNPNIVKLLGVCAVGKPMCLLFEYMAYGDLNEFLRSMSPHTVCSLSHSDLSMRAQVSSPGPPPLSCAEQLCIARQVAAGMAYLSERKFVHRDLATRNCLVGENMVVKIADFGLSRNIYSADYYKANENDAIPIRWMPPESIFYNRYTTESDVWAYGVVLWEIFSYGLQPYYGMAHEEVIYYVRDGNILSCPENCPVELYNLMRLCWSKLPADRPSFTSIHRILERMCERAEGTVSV"}
{"SMILES": "CC(C)N(CCC(=O)c1ccc2ccccc2c1)Cc1ccccc1", "remaining activity [%]": 112}
{"SMILES": "C[C@@H](N)[C@H]1CC[C@H](C(=O)Nc2ccncc2)CC1", "remaining activity [%]": 86.8}
{"SMILES": "CC(C)n1cnc2c(Nc3cccc(Cl)c3)nc(NCCO)nc21", "remaining activity [%]": 58.6}
{"SMILES": "FC(F)(F)c1ccc(/C=C/c2nc(COc3ccc(CCCCn4ccnn4)cc3)co2)cc1", "remaining activity [%]": 104}
{"SMILES": "N#CC(c1ccnc(NCCc2cccnc2)n1)c1nc2ccccc2s1 (stereo not shown)", "remaining activity [%]": 14.8}
{"SMILES": "CC(C)(C)c1nc2c3cc[nH]c(=O)c3c3cc(F)ccc3c2[nH]1", "remaining activity [%]": 81.7}
{"SMILES": "NC(=O)c1cccc(-c2cc(Nc3ccc(OC(F)(F)F)cc3)ncn2)c1", "remaining activity [%]": 95.9}
{"SMILES": "O=C1c2ccccc2-c2nc3nnnn3nc21", "remaining activity [%]": 107}
{"SMILES": "CNc1cc2c(Nc3cccc(Br)c3)ncnc2cn1", "remaining activity [%]": 81.3}
{"SMILES": "O=Nc1c(-c2c(O)[nH]c3ccccc23)[nH]c2ccccc12", "remaining activity [%]": 71.2}
{"SMILES": "COc1cc2c(Nc3ccc(Br)cc3F)ncnc2cc1OCC1CCN(C)CC1", "remaining activity [%]": 94.6}
{"SMILES": "c1cc(-c2cnn3cc(-c4ccc(OCCN5CCCCC5)cc4)cnc23)ccn1", "remaining activity [%]": 47.3}
{"SMILES": "O=C(c1ccccc1)c1ccc(N2CCOCC2)cc1O", "remaining activity [%]": 101}
{"SMILES": "O=C1NC(=O)/C(=C/c2ccc3c(c2)OC(F)(F)O3)S1", "remaining activity [%]": 70.9}
{"SMILES": "O=C(O)/C=C/c1cc(Br)c(Br)c(Br)c1Br", "remaining activity [%]": 53.6}
{"SMILES": "Nc1nc(Nc2ccc(S(N)(=O)=O)cc2)nn1C(=S)Nc1c(F)cccc1F", "remaining activity [%]": 8.02}
{"SMILES": "CCCCc1c(-c2ccc(O)cc2)[nH]c2nccnc12", "remaining activity [%]": 82}
{"SMILES": "N#C/C(=C(/N)SC1C=CC=CC1)c1cccc(C(O)c2ccncc2)c1 (stereo not shown)", "remaining activity [%]": 101}
{"data": "Block 4", "SMILES": "CN(C)C(=O)Cn1cc(-c2nc(C3(c4ccc(-c5cnc(N)nc5)cc4)CC3)no2)cn1", "method": "competition with immobilised ligand", "concentration": "1 µM"}
{"target": "Serine/threonine-protein kinase RIO3 (RIOK3, Homo sapiens, UniProt O14730)", "test": "cell-free assay", "remaining binding": "89%"}
{"target": "Serine/threonine-protein kinase 32A (STK32A, Homo sapiens, UniProt Q8WU08)", "test": "cell-free assay", "remaining binding": "97%"}
{"target": "Receptor-interacting serine/threonine-protein kinase 4 (RIPK4, Homo sapiens, UniProt P57078)", "test": "cell-free assay", "remaining binding": "70%"}
{"target": "Calcium/calmodulin-dependent protein kinase type IV (CAMK4, Homo sapiens, UniProt Q16566)", "test": "cell-free assay", "remaining binding": "100%"}
{"target": "Inhibitor of nuclear factor kappa-B kinase subunit epsilon (IKBKE, Homo sapiens, UniProt Q14164)", "test": "cell-free assay", "remaining binding": "57%"}
{"target": "Myosin-IIIb (MYO3B, Homo sapiens, UniProt Q8WXR4)", "test": "binding", "remaining binding": "100%"}
{"target": "Ephrin type-B receptor 2 (EPHB2, Homo sapiens, UniProt P29323)", "test": "cell-free assay", "remaining binding": "70%"}
{"target": "MAP kinase-activated protein kinase 5 (MAPKAPK5, Homo sapiens, UniProt Q8IW41)", "test": "cell-free assay", "remaining binding": "92%"}
{"target": "Proto-oncogene tyrosine-protein kinase receptor Ret (RET, Homo sapiens, UniProt P07949, M918T)", "test": "cell-free assay", "remaining binding": "99%"}
{"target": "Tyrosine-protein kinase ABL2 (ABL2, Homo sapiens, UniProt P42684)", "test": "cell-free assay", "remaining binding": "84%"}
{"target": "Calcium/calmodulin-dependent protein kinase kinase 2 (CAMKK2, Homo sapiens, UniProt Q96RR4)", "test": "cell-free assay", "remaining binding": "100%"}
{"target": "Serine/threonine-protein kinase Nek4 (NEK4, Homo sapiens, UniProt P51957)", "test": "cell-free assay", "remaining binding": "95%"}
{"target": "Serine/threonine-protein kinase Nek6 (NEK6, Homo sapiens, UniProt Q9HC98)", "test": "cell-free assay", "remaining binding": "81%"}
{"target": "Calcium/calmodulin-dependent protein kinase type II subunit delta (CAMK2D, Homo sapiens, UniProt Q13557)", "test": "cell-free assay", "remaining binding": "99%"}
{"target": "Tyrosine-protein kinase JAK3, JH1 (JAK3, Homo sapiens, UniProt P52333)", "test": "cell-free assay", "remaining binding": "80%"}
{"target": "Receptor-type tyrosine-protein kinase FLT3 (FLT3, Homo sapiens, UniProt P36888, K663Q)", "test": "cell-free assay", "remaining binding": "100%"}
